Results gathered from unrelated publications.
Each numbered part is a random draw from the data of one study; scales do not carry over between parts. “And” joins repeats or separate records; there may be more than shown.

Study 1
Cell line: A-375
Tested at: 100 µM
Time: 18 h
SMILES | viability
CCCCCCC(=O)O[C@H]1CC[C@H]2[C@@H]3CCC4=CC(=O)CC[C@]4(C)[C@H]3CC[C@]12C | 7.71%
CCC1(c2cccc(O)c2)CCCCN(C)C1 (stereo not shown) | 97.8%
CCC(=O)O[C@H]1CC[C@H]2[C@@H]3CCC4=CC(=O)CC[C@]4(C)[C@H]3CC[C@]12C | 15.9%
C/C=C(\C)C(=O)N[C@@H](c1ccccc1)[C@@H](O)C(=O)O[C@H]1C[C@@]2(O)[C@@H](OC(=O)c3ccccc3)[C@@H]3[C@]4(OC(C)=O)CO[C@@H]4C[C@H](O)[C@@]3(C)C(=O)[C@H](OC(C)=O)C(=C1C)C2(C)C | 55.4%
COc1ccc(OC)c([C@@H](O)[C@H](C)N)c1 | 90.9%
N[C@@H](Cc1ccc(N(CCCl)CCCl)cc1)C(=O)O | 28.9%
CCOC(=O)Nc1ccc(NCc2ccc(F)cc2)cc1N | 95%

Study 2
Cell line: HEK-293T/ACE2
Tested at: 10 µM
Time: 16 h
Reference: vehicle
SMILES | viability [%]
COCCCOc1cc(C[C@@H](C[C@H](N)[C@@H](O)C[C@H](C(=O)NCC(C)(C)C(N)=O)C(C)C)C(C)C)ccc1OC | 100
CCCCCCCCCCC[C@@H](C[C@@H]1OC(=O)[C@H]1CCCCCC)OC(=O)[C@H](CC(C)C)NC=O | 90.8
OCCN1C[C@H](O)[C@@H](O)[C@H](O)[C@H]1CO | 101
NC(=O)N1c2ccccc2C=Cc2ccccc21 | 99.5
COC(=O)C1=C(C)NC(C)=C(C(=O)OC(C)C)C1c1cccc2nonc12 (stereo not shown) | 99.8
C/C(=C\C(=O)OCCCCCCCCC(=O)O)C[C@@H]1OC[C@H](C[C@@H]2O[C@H]2[C@@H](C)[C@H](C)O)[C@@H](O)[C@H]1O | 102
Cn1c(=O)c2c(ncn2CC(O)CO)n(C)c1=O (stereo not shown) | 97.3
Nc1nnc(-c2cccc(Cl)c2Cl)c(N)n1 | 102
[H]/N=C(/NCCCCC)N/N=C/c1c[nH]c2ccc(OC)cc12 | 93.4
C[C@]12CCC(=O)C=C1CC[C@@H]1[C@@H]2CC[C@@]2(C)[C@H]1CC[C@]2(C)O | 98.8
COc1ccc2[nH]c([S+]([O-])Cc3ncc(C)c(OC)c3C)nc2c1 (stereo not shown) | 96.2
CC1(C)S[C@@H]2[C@H](NC(=O)[C@H](N)c3ccccc3)C(=O)N2[C@H]1C(=O)O | 98.7
Cc1c(-c2ccccc2)oc2c(C(=O)OCCN3CCCCC3)cccc2c1=O | 102
CC(=O)N(CC(O)CO)c1c(I)c(C(=O)NCC(O)CO)c(I)c(C(=O)NCC(O)CO)c1I (stereo not shown) | 104
N#C/C(=C1/SC[C@@H](c2ccc(Cl)cc2Cl)S1)n1ccnc1 | 98.8

Study 3
SMILES: CNC(=N)NCCC[C@H](NC(=O)[C@H](CC(C)C)NC(=O)NNC(=O)[C@H](Cc1ccccc1)NC(=O)[C@H](CO)NC(=O)[C@H](CC(N)=O)NC(=O)[C@@H](Cc1cccnc1)NC(=O)[C@H](N)Cc1ccc(O)cc1)C(=O)NCC(N)=O
Tested at: 0.1 µM
Reference: DMSO
cell line | technique | notes | viability
sample I colorectal tumour organoid | – | – | 127%
sample I colorectal tumour organoid | – | replicate 1 | 135%
sample C colorectal tumour organoid | – | replicate 1 | 88.9%
normal-adjacent epithelium patient-derived organoids sample G | CellTiter-Glo | – | 96.1% and 132%
colorectal tumour organoids | – | – | 105%
sample C colorectal tumour organoid | – | replicate 2 | 99.7%
normal-adjacent epithelium patient-derived organoids sample F | CellTiter-Glo | – | 99.6% and 113%

Mixed results
Cell line: HEK293T-ACE2-TMPRSS2
Tested at: 10 µM
Structure (SMILES) | viability [%]
C=CCNC1=C2C[C@@H](C)C[C@H](OC)[C@H](O)[C@@H](C)/C=C(\C)[C@H](OC(N)=O)[C@@H](OC)/C=C\C=C(/C)C(=O)NC(=CC1=O)C2=O | 124
CC(C)(C)NC(=S)N/N=C/C=N/NC(=S)NC(C)(C)C | 161

A few entries again (study 2):
SMILES | viability [%]
COc1ccc2[nH]c([S+]([O-])Cc3ncc(C)c(OC)c3C)nc2c1 (stereo not shown) | 96.2
CC1(C)S[C@@H]2[C@H](NC(=O)[C@H](N)c3ccccc3)C(=O)N2[C@H]1C(=O)O | 98.7
Cc1c(-c2ccccc2)oc2c(C(=O)OCCN3CCCCC3)cccc2c1=O | 102
CC(=O)N(CC(O)CO)c1c(I)c(C(=O)NCC(O)CO)c(I)c(C(=O)NCC(O)CO)c1I (stereo not shown) | 104
